Published values gathered from unrelated publications.
Parts stem from different laboratories: compare values within a part only. Several values in a cell are separate wells, animals, samples, runs or records.
UniProt P42336, sequence (whole entry, unmodified, looked up): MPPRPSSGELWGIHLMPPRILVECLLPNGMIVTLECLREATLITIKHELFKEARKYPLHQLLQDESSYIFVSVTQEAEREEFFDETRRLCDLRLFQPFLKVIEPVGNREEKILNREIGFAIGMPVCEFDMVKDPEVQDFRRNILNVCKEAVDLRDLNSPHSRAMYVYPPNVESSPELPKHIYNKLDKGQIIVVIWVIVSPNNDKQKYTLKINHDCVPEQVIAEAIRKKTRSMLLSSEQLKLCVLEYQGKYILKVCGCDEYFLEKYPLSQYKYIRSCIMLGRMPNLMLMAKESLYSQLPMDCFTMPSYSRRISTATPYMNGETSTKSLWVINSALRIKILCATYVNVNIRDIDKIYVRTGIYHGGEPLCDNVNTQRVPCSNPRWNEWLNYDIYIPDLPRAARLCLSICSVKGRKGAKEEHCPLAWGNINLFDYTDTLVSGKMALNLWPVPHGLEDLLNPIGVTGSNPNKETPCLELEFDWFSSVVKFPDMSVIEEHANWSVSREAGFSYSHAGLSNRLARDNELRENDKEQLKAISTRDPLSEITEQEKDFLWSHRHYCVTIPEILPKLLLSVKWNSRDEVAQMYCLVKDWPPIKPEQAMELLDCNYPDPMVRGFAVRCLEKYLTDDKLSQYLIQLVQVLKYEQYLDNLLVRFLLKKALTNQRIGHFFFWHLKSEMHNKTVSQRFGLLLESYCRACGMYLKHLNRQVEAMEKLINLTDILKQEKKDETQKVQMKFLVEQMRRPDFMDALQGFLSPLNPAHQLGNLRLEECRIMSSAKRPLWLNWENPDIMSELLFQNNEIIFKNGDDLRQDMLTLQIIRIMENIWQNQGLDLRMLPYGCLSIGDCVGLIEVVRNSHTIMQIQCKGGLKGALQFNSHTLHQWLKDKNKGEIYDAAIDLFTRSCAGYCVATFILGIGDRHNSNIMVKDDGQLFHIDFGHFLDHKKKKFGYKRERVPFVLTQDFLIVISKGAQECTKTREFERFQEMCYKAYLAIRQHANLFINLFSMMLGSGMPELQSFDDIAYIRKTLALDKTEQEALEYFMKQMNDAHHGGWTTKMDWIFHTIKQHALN
UniProt P17948, sequence (whole entry, looked up): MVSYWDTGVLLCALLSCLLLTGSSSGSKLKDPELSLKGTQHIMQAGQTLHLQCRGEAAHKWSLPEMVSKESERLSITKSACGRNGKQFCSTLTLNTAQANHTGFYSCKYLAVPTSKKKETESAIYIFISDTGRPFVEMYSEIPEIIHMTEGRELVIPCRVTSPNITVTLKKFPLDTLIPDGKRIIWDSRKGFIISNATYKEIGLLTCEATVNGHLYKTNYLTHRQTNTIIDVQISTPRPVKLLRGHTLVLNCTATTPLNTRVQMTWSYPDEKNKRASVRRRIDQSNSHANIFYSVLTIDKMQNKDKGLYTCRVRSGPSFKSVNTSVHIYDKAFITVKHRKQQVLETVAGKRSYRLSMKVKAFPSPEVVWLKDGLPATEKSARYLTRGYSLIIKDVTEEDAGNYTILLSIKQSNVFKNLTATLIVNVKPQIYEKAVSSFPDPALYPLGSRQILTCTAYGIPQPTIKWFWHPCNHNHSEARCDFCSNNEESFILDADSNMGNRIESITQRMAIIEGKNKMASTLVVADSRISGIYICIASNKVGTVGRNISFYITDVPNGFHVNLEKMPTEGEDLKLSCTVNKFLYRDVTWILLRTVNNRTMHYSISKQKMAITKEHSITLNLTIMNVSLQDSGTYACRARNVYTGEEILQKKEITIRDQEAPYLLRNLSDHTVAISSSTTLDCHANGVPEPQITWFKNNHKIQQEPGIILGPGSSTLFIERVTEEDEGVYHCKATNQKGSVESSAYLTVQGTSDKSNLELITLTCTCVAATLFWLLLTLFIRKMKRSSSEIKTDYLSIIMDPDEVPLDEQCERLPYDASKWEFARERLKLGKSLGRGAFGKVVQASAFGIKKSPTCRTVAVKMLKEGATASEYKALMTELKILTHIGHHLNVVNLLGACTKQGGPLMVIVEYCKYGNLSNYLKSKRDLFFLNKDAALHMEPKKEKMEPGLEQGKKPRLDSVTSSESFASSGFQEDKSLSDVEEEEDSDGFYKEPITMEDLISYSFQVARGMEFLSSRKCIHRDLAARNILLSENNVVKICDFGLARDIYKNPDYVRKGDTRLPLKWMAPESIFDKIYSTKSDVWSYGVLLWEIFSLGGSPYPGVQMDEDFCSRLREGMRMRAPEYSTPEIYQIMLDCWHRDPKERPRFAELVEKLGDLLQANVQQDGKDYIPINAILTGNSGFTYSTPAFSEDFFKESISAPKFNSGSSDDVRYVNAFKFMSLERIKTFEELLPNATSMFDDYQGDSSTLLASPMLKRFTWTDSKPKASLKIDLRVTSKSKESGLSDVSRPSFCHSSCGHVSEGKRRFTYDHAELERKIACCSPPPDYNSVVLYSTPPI
UniProt Q2M2I8, sequence (whole entry, looked up): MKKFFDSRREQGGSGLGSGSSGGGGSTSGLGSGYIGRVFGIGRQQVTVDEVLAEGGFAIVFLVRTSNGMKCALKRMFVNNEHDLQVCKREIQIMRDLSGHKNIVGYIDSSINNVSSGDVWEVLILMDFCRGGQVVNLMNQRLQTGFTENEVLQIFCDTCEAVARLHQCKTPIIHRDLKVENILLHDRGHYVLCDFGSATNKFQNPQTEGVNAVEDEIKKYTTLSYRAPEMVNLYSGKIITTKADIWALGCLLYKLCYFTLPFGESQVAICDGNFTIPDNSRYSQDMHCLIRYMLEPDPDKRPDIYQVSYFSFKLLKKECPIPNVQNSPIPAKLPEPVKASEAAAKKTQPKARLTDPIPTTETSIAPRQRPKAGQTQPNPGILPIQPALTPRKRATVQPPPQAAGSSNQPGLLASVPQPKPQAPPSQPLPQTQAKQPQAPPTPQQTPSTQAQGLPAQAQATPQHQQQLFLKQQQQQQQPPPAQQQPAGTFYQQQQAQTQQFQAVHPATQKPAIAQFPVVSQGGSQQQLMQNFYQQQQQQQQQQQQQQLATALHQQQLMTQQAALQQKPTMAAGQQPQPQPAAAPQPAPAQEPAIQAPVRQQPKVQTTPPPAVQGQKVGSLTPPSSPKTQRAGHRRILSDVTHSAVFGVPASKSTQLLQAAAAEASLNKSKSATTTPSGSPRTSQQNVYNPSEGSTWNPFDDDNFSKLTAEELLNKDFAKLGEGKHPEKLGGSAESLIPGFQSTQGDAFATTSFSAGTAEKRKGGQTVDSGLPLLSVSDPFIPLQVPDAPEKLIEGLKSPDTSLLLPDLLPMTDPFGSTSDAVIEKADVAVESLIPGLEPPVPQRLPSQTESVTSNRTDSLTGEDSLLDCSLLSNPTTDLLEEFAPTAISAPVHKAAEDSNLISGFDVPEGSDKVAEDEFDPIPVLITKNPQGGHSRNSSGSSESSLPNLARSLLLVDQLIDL
UniProt Q02750, sequence (whole entry, looked up): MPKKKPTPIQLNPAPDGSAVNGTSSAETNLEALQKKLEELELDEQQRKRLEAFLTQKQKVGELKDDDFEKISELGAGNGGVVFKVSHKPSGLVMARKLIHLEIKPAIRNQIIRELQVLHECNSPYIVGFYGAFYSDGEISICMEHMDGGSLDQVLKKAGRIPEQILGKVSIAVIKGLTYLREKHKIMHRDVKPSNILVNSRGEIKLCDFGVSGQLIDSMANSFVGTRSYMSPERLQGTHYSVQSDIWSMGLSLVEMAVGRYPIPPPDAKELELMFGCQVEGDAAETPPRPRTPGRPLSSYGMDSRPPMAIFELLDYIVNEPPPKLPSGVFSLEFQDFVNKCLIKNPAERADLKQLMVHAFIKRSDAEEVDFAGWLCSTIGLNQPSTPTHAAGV
UniProt Q8NG66, sequence (whole entry, looked up): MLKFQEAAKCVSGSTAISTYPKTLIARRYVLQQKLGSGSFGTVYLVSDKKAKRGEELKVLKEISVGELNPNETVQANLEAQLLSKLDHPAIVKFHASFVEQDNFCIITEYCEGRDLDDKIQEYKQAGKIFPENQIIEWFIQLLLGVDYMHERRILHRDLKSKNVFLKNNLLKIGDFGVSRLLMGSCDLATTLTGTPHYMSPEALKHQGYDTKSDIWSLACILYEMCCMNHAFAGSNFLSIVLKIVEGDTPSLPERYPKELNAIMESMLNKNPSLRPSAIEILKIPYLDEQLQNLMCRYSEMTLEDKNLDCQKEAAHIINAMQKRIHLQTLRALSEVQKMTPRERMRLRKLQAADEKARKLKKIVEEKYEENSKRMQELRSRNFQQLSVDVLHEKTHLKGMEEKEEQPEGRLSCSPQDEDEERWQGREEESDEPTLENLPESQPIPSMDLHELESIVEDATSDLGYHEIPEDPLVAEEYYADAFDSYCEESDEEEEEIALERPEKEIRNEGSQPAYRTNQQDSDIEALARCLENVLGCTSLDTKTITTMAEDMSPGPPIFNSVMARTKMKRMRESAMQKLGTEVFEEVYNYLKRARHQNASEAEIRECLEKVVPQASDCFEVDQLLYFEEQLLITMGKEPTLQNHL

Study 1 — cell line: mouse MPNST tumor cells; technique: high-content nuclear imaging; measured: cell number; concentration: 10 µM; time: 12 h; setting: mean of 2 replicates; reference: plate mean; direction: higher = more cells
| SMILES | nuclei count [z-score] |
| --- | --- |
| COc1ccc(S(=O)(=O)N2c3ccc(Cl)cc3[C@](O)(c3ccccc3Cl)[C@@H]2C(=O)N2CCC[C@H]2C(N)=O)cc1OC | 1.11 |
| CCc1c(-c2ccccc2)c(-c2ccccc2)nn1-c1ccccc1-c1cccc(OCC(=O)O)c1 | 1.04 |
| CCCCc1oc2ccccc2c1C(=O)c1cc(I)c(OCCN(CC)CC)c(I)c1 | -4.65 |
| Cc1ccc([N+](=O)[O-])cc1S(=O)(=O)n1c(C)nc2ccccc21 | 0.248 |
| C[C@@H]1C[C@H]2[C@@H]3C[C@H](F)C4=CC(=O)C=C[C@]4(C)[C@@]3(F)[C@@H](O)C[C@]2(C)[C@@]1(O)C(=O)COC(=O)C(C)(C)C | 3.58 |
| Nc1ncnc2n[nH]c(Nc3ccc(F)cc3)c12 | 1.79 |

Study 2 — target: His6 tag; technique: AlphaScreen counter screen; concentration: concentration not given
| SMILES | inhibition [%] |
| --- | --- |
| Cc1ccc(C(=O)O)cc1-c1ccc(C=C2NC(=O)N(c3ccccc3)C2=O)o1 | -0.15 |
| CCCN(Cc1ccccc1)C(=S)Nc1ccc2nc[nH]c(=O)c2c1 | 8.15 |
| O=C(Nc1nnc(SCc2ccc(F)cc2)s1)c1ccc(F)cc1 | 1.8 |
| O=c1[nH]cnc2sc(-c3ccccc3)cc12 | 7.5 |
| COc1ccc(C(=O)Nc2sc3c(c2C(N)=O)CCCC3)cc1OC | 4.25 |
| COc1ccc2[nH]c([S+]([O-])Cc3ncc(C)c(OC)c3C)nc2n1 (centres unmarked) | -15.3 |
| C[C@@H]1CCN(C(=O)CC#N)C[C@@H]1N(C)c1ncnc2[nH]ccc12 | -3.7 |
| O=C(CSc1ccc2nnc(-c3cccc(F)c3)n2n1)Nc1ccc(F)cc1F | -7.8 |
| COc1ccc(Cl)cc1NC(=O)Nc1cc(C)nc2ccccc12 | 53.5 |

Study 3 — route: intraperitoneal; dose: 100 mg/kg twice daily
SMILES: CO[C@@H]1[C@@H](OC(N)=O)[C@@H](O)[C@H](Oc2ccc3c(O)c(NC(=O)c4ccc(O)c(CC=C(C)C)c4)c(=O)oc3c2C)OC1(C)C
Host: FVB/129P2 mice, Brca1-/- Trp53-/- TNBC allograft
| time | tumour volume |
| --- | --- |
| 43 days | 1510 mm3 |
| 27 days | 187 mm3 and 624 mm3 and 2660 mm3 and 1220 mm3 |
| 45 days | 2540 mm3 |
| 13 days | 786 mm3 and 1230 mm3 and 2810 mm3 and 282 mm3 and 658 mm3 and 164 mm3 |
| 7 days | 159 mm3 and 756 mm3 and 180 mm3 and 1350 mm3 and 988 mm3 and 1450 mm3 and 887 mm3 |
| 37 days | 3330 mm3 and 762 mm3 |
| 31 days | 654 mm3 and 1990 mm3 and 402 mm3 |

Study 4 — cell line: HaCaT; concentration: 100 µM; time: 36 h
| Structure (SMILES) | viability [%] |
| --- | --- |
| COc1ccccc1OCC(O)CN1CCN(CC(=O)Nc2c(C)cccc2C)CC1 (centres unmarked) | 83.4 |
| CCCNC(C)C(=O)Nc1ccccc1C (centres unmarked) | 93.4 |
| CC(=O)O[C@H]1C[C@@H]2CC[C@@H]3[C@H](CC[C@@]4(C)[C@H]3C[C@H]([N+]3(C)CCCCC3)[C@@H]4OC(C)=O)[C@@]2(C)C[C@@H]1N1CCCCC1 | 90.4 |
| CN(C)[C@@H]1C(O)=C(C(N)=O)C(=O)[C@@]2(O)C(O)=C3C(=O)c4c(O)cccc4[C@@](C)(O)[C@H]3C[C@@H]12 | 93.8 |
| Nc1ccc(S(=O)(=O)Nc2ccccn2)cc1 | 54.7 |
| CC(C)=CCC/C(C)=C/CC/C(C)=C/CC/C(C)=C/CC1=C(C)C(=O)c2ccccc2C1=O | 74.3 |

Study 5 — concentration: 0.1 µM
SMILES: Cn1nc(C(=O)NCc2ccc(C(=O)O)cc2)cc1-c1ccc2[nH]ccc2c1
| target | effect on | technique | remaining binding [%] |
| --- | --- | --- | --- |
| WEE2 (Homo sapiens, UniProt P0C1S8) | cell-free assay | competition with immobilised ligand | 91 |
| CLK4 (Homo sapiens, UniProt Q9HAZ1) | cell-free assay | competition with immobilised ligand | 69 |
| FLT1 (Homo sapiens, UniProt P17948) | cell-free assay | competition with immobilised ligand | 89 |
| AAK1 (Homo sapiens, UniProt Q2M2I8) | binding |  | 90 |
| RIPK4 (Homo sapiens, UniProt P57078) | cell-free assay | competition with immobilised ligand | 68 |
| NEK2 (Homo sapiens, UniProt P51955) | cell-free assay | competition with immobilised ligand | 95 |
| DYRK1A (Homo sapiens, UniProt Q13627) | cell-free assay | competition with immobilised ligand | 98 |
| VRK2 (Homo sapiens, UniProt Q86Y07) | cell-free assay | competition with immobilised ligand | 91 |
| NEK11 (Homo sapiens, UniProt Q8NG66) | cell-free assay | competition with immobilised ligand | 83 |
| ALK (Homo sapiens, UniProt Q9UM73, C1156Y) | cell-free assay | competition with immobilised ligand | 65 |
| CDK11B (Homo sapiens, UniProt P21127) | cell-free assay | competition with immobilised ligand | 93 |
| MAP2K1 (Homo sapiens, UniProt Q02750) | cell-free assay | competition with immobilised ligand | 91 |
| TLK1 (Homo sapiens, UniProt Q9UKI8) | cell-free assay | competition with immobilised ligand | 100 |
| MAP3K1 (Homo sapiens, UniProt Q13233) | cell-free assay | competition with immobilised ligand | 65 |
| RET (Homo sapiens, UniProt P07949, V804L) | cell-free assay | competition with immobilised ligand | 45 |
| PIK3CA (Homo sapiens, UniProt P42336, H1047Y) | cell-free assay | competition with immobilised ligand | 100 |
| PLK3 (Homo sapiens, UniProt Q9H4B4) | cell-free assay | competition with immobilised ligand | 94 |
| EPHB1 (Homo sapiens, UniProt P54762) | cell-free assay | competition with immobilised ligand | 87 |
| MAPK15 (Homo sapiens, UniProt Q8TD08) | cell-free assay | competition with immobilised ligand | 98 |
| Ribosomal protein S6 kinase alpha-4, N-terminal kinase domain (RPS6KA4, Homo sapiens, UniProt O75676) | cell-free assay | competition with immobilised ligand | 73 |
| LRRK2 (Homo sapiens, UniProt Q5S007, G2019S) | cell-free assay | competition with immobilised ligand | 70 |
| CLK1 (Homo sapiens, UniProt P49759) | cell-free assay | competition with immobilised ligand | 80 |
| ACVR2A (Homo sapiens, UniProt P27037) | cell-free assay | competition with immobilised ligand | 98 |
| PIM3 (Homo sapiens, UniProt Q86V86) | cell-free assay | competition with immobilised ligand | 91 |
| EGFR (Homo sapiens, UniProt P00533, L858R/T790M) | cell-free assay | competition with immobilised ligand | 92 |

For quick reference, copied from above (study 4):
| Structure (SMILES) | viability [%] |
| --- | --- |
| COc1ccccc1OCC(O)CN1CCN(CC(=O)Nc2c(C)cccc2C)CC1 (centres unmarked) | 83.4 |
| CCCNC(C)C(=O)Nc1ccccc1C (centres unmarked) | 93.4 |
| CC(=O)O[C@H]1C[C@@H]2CC[C@@H]3[C@H](CC[C@@]4(C)[C@H]3C[C@H]([N+]3(C)CCCCC3)[C@@H]4OC(C)=O)[C@@]2(C)C[C@@H]1N1CCCCC1 | 90.4 |
| CN(C)[C@@H]1C(O)=C(C(N)=O)C(=O)[C@@]2(O)C(O)=C3C(=O)c4c(O)cccc4[C@@](C)(O)[C@H]3C[C@@H]12 | 93.8 |
| Nc1ccc(S(=O)(=O)Nc2ccccn2)cc1 | 54.7 |
| CC(C)=CCC/C(C)=C/CC/C(C)=C/CC/C(C)=C/CC1=C(C)C(=O)c2ccccc2C1=O | 74.3 |
